# Experimental data pooled from the literature.
# Each numbered part is a random draw from the data of one study; scales do not carry over between parts.

# Set 1
# Target: RNA binding protein fox-1 homolog 2, RRM domain, GST-SBP tag (RBFOX2, Homo sapiens, UniProt O43251-10, residues 100-194)
# Method: RNA Bind-n-Seq
# Form: RNA
# Sample: in vitro
# Tested at: 365 nM
# Setting: natural RNA segment, single round, ends assumed
# Reference: no-protein control
# Reading: higher = stronger binding
# Shared flanks, not repeated: GGGAGUUCUACAGUCCGACGAUC … UGGAAUUCUCGGGUGCCAA
Sequence,RBNS enrichment (R)
GGUGGGAGCAGUGUCACUGUGCUAGCAAUAGUUGGCUUCUCCCCUGUCAGUGGAAACCCCACUUCUGCCCGGCCCUUGAGCUUCUUGCCCACUGUCUCCCCAUCCUUCCA,0.515
UUUUGUGUAGGGUCAAGUUAUUUUUAUAUGAGUUAAUGUGAAAUUGUAAAUGGAAAUUUUUCCUUAAAAUACAACACAAUGAUGUCUGUAUAAAUCUGUCUGUUUAGAAU,0.481
CUGUCAUGUAAUCAGCUAAUUCUCUGUGGAUGUUGCUGUAAAGUAUGCAUGUUCCUUUCAUGUGUAUUUAAUCAUGAUGUUUAAUUUUGCACACUUAUUUGUAAUGUUUC,0.536
AAAAAAUAUAUAUAUAUAUAUAUAGCUGACUGGAAGAGAUUAAUUUCUUCCCCCAACUUCUUGCAUGUUGAAGAUAUUUGAGCUAUUUUUCAUCUAAAAGAGUAAGGUAU,12.7
CUUUCUUGGAAAUGGACCUUCUGUCCCUUCCAUUUGGACACCACAGUGGAAGCUGGUGGCCUGGAAGGAAGGAUUAGGUCAUGGACAUUUGAACAGGUGCCUUGGGCAUG,0.385
AGGUCUCCACCUUCAUCAAGGCUCAAGUGAGUGAGGGCAAAGGACGCCUCAUGCCUGGGCAGGACCCUGAGAAAACCAUAGGAGACAUGUUCCAGAACCAGGACCGCAAC,0.741
GCAGUAAGAAUUGCCAGCCACUCAUUGUGCGGGUCUGCGUGGAGCUUUAAUCAGAAAAAGCCUCCACUUUCUGUAUUAUGUUAACAUUGGCUCAUGCAUAUAACUAUCUG,0.486
CUCUUAGUCUUUAAGUUCAAAGACUAACCUGUAGCAAUCAGACUUUCCAAAAGGGGGUUCUCCAUUUUUUGUAGUUUUGUCUAAAUUUUUAAUGACCAUUUCCUGGAAUC,1.03
CUAGAGCCUCUUUGUGACUCCACCAACUCCUUCUUGUCUCCUUUUAUUGAAGAGUCCGCACACAUACUCACCCCUCUGGUGGGCCACAUGAGGACCUGCAUCUUGCAGAU,1.09
UUAUGGAGGAAGGAAUGGAUCUUUGGUCAGAUGAGACUAACAGAGGGACUCACUGUCAGAGUUAGCGUGGAUUGCUGCUGCCGGGGCACUACCUCCUGGCUUCUCUCCCU,0.711
UGACAGGUGGACAUCUGUGUCAUUUUUCCUUGUUCCCUCAUCCAUCCAUCCAUCCAUCCAUCCAUCCAUCCAUCCAUCCAUCCAUUCGUCAGCCUACAUUCAACAAACGC,1.23
CUGAUGCCUUUUGUACCGAGGAAGAUAAUUGCCUCUUGUUUGACAAGUAGAGUUUAGUAGGUUAUUACAAAAAGGGCAAGAGUUGUUUUGGUUUUGUUUCUUUCAAAAUA,0.452

# Set 2
# Target: Interferon regulatory factor 7, full length, phosphomimetic (IRF7, Homo sapiens, UniProt Q92985, residues 1-503, S471D/S472D/S475D/S476D/S477D/S483D/S484D/S487D)
# Chain of UniProt Q92985 (whole entry, unmodified, looked up): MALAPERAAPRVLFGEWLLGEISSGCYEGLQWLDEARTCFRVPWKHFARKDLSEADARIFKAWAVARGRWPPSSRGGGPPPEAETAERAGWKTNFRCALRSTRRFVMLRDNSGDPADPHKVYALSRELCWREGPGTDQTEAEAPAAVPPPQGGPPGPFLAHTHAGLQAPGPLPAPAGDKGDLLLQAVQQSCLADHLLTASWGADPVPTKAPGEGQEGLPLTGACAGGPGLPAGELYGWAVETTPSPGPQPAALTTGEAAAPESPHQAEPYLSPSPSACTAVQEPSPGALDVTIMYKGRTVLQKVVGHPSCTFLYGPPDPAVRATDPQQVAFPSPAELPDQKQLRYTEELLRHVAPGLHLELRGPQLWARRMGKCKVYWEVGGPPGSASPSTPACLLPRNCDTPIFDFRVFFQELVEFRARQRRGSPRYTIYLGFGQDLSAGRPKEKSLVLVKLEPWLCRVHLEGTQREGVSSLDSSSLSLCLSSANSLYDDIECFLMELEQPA
# Method: protein-binding microarray
# Form: double-stranded DNA, one strand shown
# Sample: in vitro
# Tested at: 2200 nM top
# Setting: 60-bp whole probe
# With: salmon DNA 0.4 mg/ml
# Reference: random background probes
# Reading: higher = stronger binding
# Shared flanks, not repeated: GCCTAGCAC … GTCTTGATTCGCTTGACGCTGCTG
Sequence,fitted relative affinity [z-score]
GACGCACTGGGTTTCGGGACGTGCTAG,1.55
TTAGGTCTTGGTATCGGTTAGTGCTAG,0.549
TTAGCTCTCAGTCTCGATTAGTGCTAG,0.557
GTTTTTTTCTATATGCAATGGTGCTAG,2.63
TTAGGTATCCTTATCCTCTAGTGCTAG,0.948
TCACATATGTTTTTCATACTGTGCTAG,1.84
GACGGTCTTGGTATCGGGACGTGCTAG,0.153
GATGGTTTCGACTTTCGGGACGTGCTA,8.96
GACGATTTCGGACTGGAGACGTGCTAG,1.43
CTCATTCTCTGCTTGCGTCTGTGCTAG,2.22
TTAGGTTTCCTTTCCGTTTAGTGCTAG,5.66
GACGGTTTCCTAGTGCTGACGTGCTAG,0.899
GACGGTTTCGGTATCGGGCCGTGCTAG,7.82
GACGGTCTCAGACTGGGGACGTGCTAG,-0.53
ACCCTGCCTAAAGCTAGTTTGTGCTAG,0.668
TCACCTTTTCTTTACTGACTGTGCTAG,2.29

# Set 3
# Target: Sal-like protein 4, full length isoform B (SALL4, Homo sapiens, UniProt Q9UJQ4-2, residues 1-616)
# Method: universal PBM
# Form: double-stranded DNA, one strand shown
# Sample: in vitro
# Tested at: not given
# Setting: 8-mer, flanks averaged, mean of replicates
# Reading: higher = stronger binding
# Construct (chain): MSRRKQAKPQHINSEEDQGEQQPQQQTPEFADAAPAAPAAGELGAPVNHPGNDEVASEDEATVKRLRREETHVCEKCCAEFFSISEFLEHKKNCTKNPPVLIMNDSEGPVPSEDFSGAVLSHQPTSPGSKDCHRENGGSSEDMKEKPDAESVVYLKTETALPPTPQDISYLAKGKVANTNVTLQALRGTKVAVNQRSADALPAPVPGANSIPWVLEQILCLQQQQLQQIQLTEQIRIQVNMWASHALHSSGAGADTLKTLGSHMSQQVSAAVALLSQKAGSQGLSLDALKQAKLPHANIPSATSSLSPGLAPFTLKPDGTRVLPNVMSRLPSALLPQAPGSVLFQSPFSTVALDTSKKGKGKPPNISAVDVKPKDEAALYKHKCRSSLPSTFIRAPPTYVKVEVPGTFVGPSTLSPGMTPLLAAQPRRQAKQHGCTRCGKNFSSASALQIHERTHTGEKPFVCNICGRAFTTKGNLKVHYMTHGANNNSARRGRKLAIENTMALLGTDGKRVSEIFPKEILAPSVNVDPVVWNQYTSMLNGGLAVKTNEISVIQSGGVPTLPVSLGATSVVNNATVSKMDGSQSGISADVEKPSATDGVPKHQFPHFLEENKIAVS
Sequence,E-score
TAGGGGCA,-0.062
AGCGGGAT,-0.166
AGCTGCCG,-0.253
CACACCGC,-0.336
AAGTATTC,0.164
CTTTACGA,0.148
AACTCGGA,-0.153
TTCTTCAA,0.126
ATCCTTGG,-0.0411
CATGTGAC,0.145
CCACCGGA,-0.152
ACAGCGCC,-0.304
CATGGTAC,0.0153
GAGGATGA,-0.00454
ATGCCGCG,-0.251
AATGTAAC,0.195
CCGGCTTC,-0.391
CTACCACA,0.0616
CTTGATGA,0.0806
CCCGCAAA,-0.0475

# Set 4
# Target: Centromere-binding protein 1, full length, His-tagged (CBF1, Saccharomyces cerevisiae, UniProt P17106, residues 1-351)
# Chain of UniProt P17106 (whole entry, looked up): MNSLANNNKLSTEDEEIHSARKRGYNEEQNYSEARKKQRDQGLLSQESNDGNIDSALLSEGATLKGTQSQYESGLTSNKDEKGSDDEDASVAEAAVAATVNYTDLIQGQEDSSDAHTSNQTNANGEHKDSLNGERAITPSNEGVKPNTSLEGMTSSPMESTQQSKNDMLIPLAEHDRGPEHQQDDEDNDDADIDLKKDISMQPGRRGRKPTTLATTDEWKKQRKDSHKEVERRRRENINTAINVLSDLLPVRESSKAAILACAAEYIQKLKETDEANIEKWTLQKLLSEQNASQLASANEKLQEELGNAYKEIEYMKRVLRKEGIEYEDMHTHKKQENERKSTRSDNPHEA
# Method: competition protein-binding microarray
# Form: double-stranded DNA, one strand shown
# Sample: in vitro
# Tested at: 2 µM
# Setting: whole 60-bp probe, lowest competitor level
# With: Pho4 competitor, 0.05 µM
# Reading: higher = stronger binding
# Shared flanks, not repeated: … GTCTTGATTCGCTTGACGCTGCTG
Sequence,fluorescence intensity
CTTCTGTAAATTTGTCACGGCACTTGACGCGCCCCG,80.5 a.u.
CTTTCCCGATCTTGGGTAGTGGGTGTAGCACATTTG,61.6 a.u.
CGGGGTTAAGTTTGTCACCTGACTTGCTTGCAGCAG,1930 a.u.
AAAGCGGTAATTTGCAACGTGGGTGCAGATATCTAT,101 a.u.
AACTGTGAAAGGTTCCACGTGGCCGGGTGAGATTCG,588 a.u.
GACTTGAAAGAACAGCACGTTTTTGTCATCGCTTAC,186 a.u.
CTTCTGTAAATTTGAAACGTGGGTGGACGCGCCCCG,96.3 a.u.
ATATTATCTTGCGAGCATGTGCGCTCAATTTCGGGG,248 a.u.
AGACCAGTGTATATTCAGCTGATCCCAATTATCATT,132 a.u.
AAATTACTAAGTTGAAATGTGGGTGACGCCGTATGA,83.3 a.u.
CGGGGTTAAGTTTTTCACGTGCACTGCTTGCAGCAG,837 a.u.
CTTTCCCGATCTTGGCTAGTGGGTGTAGCACATTTG,75 a.u.
CCAAGCGTTCAAGTCAGTGTGACGGACACCAGAGTA,75.3 a.u.
AGTTGCTTTCATTTCGGCGTGATGGTACGGCACCCA,96.3 a.u.
AAAACTTGGTTATCGCACGCTGAAAAGCGCGTTCTC,71.9 a.u.
CGGGGTTAAGTTTTTCACGTGGGGTGCTTGCAGCAG,528 a.u.
ACTCCACCTTTGAAAACGGTGTGAATTCGCCCTTTC,67.2 a.u.
AGATGTAACCCAACCGTTGTGACGGTCCAAGGTACC,89 a.u.
GTAGACGCAAACCATCACGTACTTCATTTGAGGTTC,101 a.u.
CTTCTGTAAATTTGGCGGGTGGGTGGACGCGCCCCG,75.5 a.u.
CTTCTGTAAATTTTTCACGTGTTTTGACGCGCCCCG,962 a.u.

# Set 5
# Target: Histone acetyltransferase KAT6A, winged helix 1, GST fusion (KAT6A, Homo sapiens, UniProt Q92794, residues 1-85)
# Method: protein binding microarray
# Form: double-stranded DNA, one strand shown
# Sample: in vitro
# Tested at: not given
# Setting: 8-mer, flanks averaged, mean of 2 arrays, mostly near background
# Reference: not given
# Reading: higher = stronger binding
# Target sequence (chain): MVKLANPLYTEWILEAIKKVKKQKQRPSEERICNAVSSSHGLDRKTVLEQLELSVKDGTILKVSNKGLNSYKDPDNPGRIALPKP
Sequence,E-score
GATATGTA,-2.5e-05
GTACTCCA,-0.0121
CAATTACA,-0.0704
GACTCGCC,0.119
GCTGTCAA,-0.00865
GTCGCAGA,0.141
ACTGGTTC,-0.0317
CAGTATAG,-0.146
ACTCGGAT,0.0737
GAACCTAC,-0.177
AGCCGGAG,0.173
GGTTAGCA,-0.151
ATATACGA,-0.0738
CCCTCATC,-0.176
TAGAGCTA,-0.15
AATAGAAA,-0.0419
AGCGGTTG,0.103
CCGAACAA,-0.0049
GGGTAATA,-0.00206
